Earlier results as cited in several papers.
Numbers after ± are the reported error. Converted amounts (≈) assume the structure as drawn.

c1ccc2c(c1)CCNC2c1c[nH]c2ccncc12 (centres unmarked) — relative fluorescence index (Escherichia coli; efflux pump inhibition; AG100 AcrAB-TolC expressing; 50 µM; baseline: untreated cells): 0.04
CCCCCCCCCC(=O)CC(=O)Nc1cccc(OC)c1 — pyocyanin inhibition (Pseudomonas aeruginosa; PAO1; 50 µM): 75%
Fc1cccc(COc2ccc(Nc3ncnc4ccc(-c5cccc(N6CCSCC6)c5)cc34)cc2Cl)c1 — EC50 (Trypanosoma brucei; parasite growth): 0.77 µM
CCN(CC)CC#CCNc1ccnc2cc(Cl)ccc12 — IC50 (Plasmodium falciparum; parasite growth, SYBR Green I; K1; average of experiments): 0.05 µM
CCOC(=O)[C@H]1c2c(ccc3ccccc23)O[C@@H]2c3ccsc3CCN21 — relative fluorescence index (Staphylococcus aureus; efflux pump inhibition; ATCC 25923; 100 µM; baseline: untreated cells): 0.22
O=C(c1cncc(-c2ccc3ncnc(Nc4ccc(OCc5cccc(F)c5)c(Cl)c4)c3c2)c1)N1CCOCC1 — EC50 (Trypanosoma brucei; parasite growth): 0.34 µM
c1ccc2c(C3NCCc4sccc43)c[nH]c2c1 (centres unmarked) — relative fluorescence index (Escherichia coli; efflux pump inhibition; AG100A AcrAB-TolC deleted; 50 µM; baseline: untreated cells): 0.43
CN(c1ccc(NC(=O)c2cccc(C(=N)N)c2)cc1OCc1ccc(C(=N)N)cc1)S(=O)(=O)Cc1ccccc1 — IC50 (Trypanosoma brucei; cell growth; Lister 427): 0.001 ± 0.0004 µM
COc1ccc(Nc2nc(Nc3ccc(OCC[18F])cc3)ncc2Br)cc1 — tissue uptake (S180 tumour-bearing mice, muscle; intravenous, 30 min): 1.73 ± 0.2 %ID/g
O=C(Nc1ccc2ccc(=O)oc2c1)c1cn(-c2ccc3noc(-c4ccccc4)c3c2)nn1 — IC50 (Plasmodium; parasite growth): 15.7 µM
O=C(c1cccc(-c2ccc3ncnc(Nc4ccc(OCc5cccc(F)c5)c(Cl)c4)c3c2)c1)N1CCCCC1 — EC50 (Trypanosoma brucei; parasite growth): 0.14 µM
Cc1nnc(-c2nn(-c3ccc(C(=O)N4CCCC(C)C4)cc3)c(-c3ccc(F)cc3)c2C)o1 (centres unmarked) — IC50 (Plasmodium; parasite growth): 5.55 µM
O=C(Cc1ccc(Br)cc1)N[C@H]1CCOC1=O — pyocyanin inhibition (Pseudomonas aeruginosa; PAO1; 50 µM): 10 to 30%
O=S(=O)(c1ccc(-c2ccc3ncnc(Nc4ccc(OCc5cccc(F)c5)c(Cl)c4)c3c2)cc1)N1CCNCC1 — EC50 (Trypanosoma brucei; parasite growth): 0.28 µM
c1ccc(-c2nnn3c2nc(N2CCN(Cc4ccc5c(c4)OCO5)CC2)c2ccccc23)cc1 — IC50 (Plasmodium; parasite growth): 17 µM
CN[C@H](CC(C)C)C(=O)N[C@H]1C(=O)N[C@@H](CC(N)=O)C(=O)N[C@H]2C(=O)N[C@H]3C(=O)N[C@H](C(=O)N[C@H](C(=O)O)c4cc(O)cc(O)c4-c4cc3ccc4O)[C@H](O)c3ccc(c(Cl)c3)Oc3cc2cc(c3O[C@@H]2O[C@H](CO)[C@@H](O)[C@H](O)[C@H]2O[C@H]2C[C@](C)(N)[C@H](O)[C@H](C)O2)Oc2ccc(cc2Cl)[C@H]1O — MIC (Listeria monocytogenes; 10403S): 0.34 µM (≈ 0.493 µg/mL)
O=C1C=C(Br)/C(=C/Br)O1 — inhibition (Pseudomonas aeruginosa; pyoverdine production; PAO1; 10 µM): > 90%
CN1CCOCC1CC(O)Cn1c2ccc(Cl)cc2c2cc(Cl)ccc21 (centres unmarked) — IC50 (Plasmodium; parasite growth): 1.23 µM
c1ccc(Nc2ncnc3ccc(-c4cccc(N5CCOCC5)c4)cc23)cc1 — GI50 (Trypanosoma brucei brucei; cell growth; Lister 427): 11 µM
CNC(C)CCCC(O)Cn1c2ccc(Cl)cc2c2cc(Cl)ccc21 (centres unmarked) — IC50 (Plasmodium; parasite growth): 1.56 µM
O=C(CCCOc1cccc(Br)c1)N[C@H]1CCSC1=O — reduction (Pseudomonas aeruginosa; biofilm flow-chamber clogging time; PA14; concentration not given): 60%
[2H]C([2H])([2H])C1(C([2H])([2H])[2H])NC(=O)N(c2ccc(F)c(C(C)(F)F)c2)C1=O — worm burden reduction (Schistosoma mansoni; juvenile, infected mice; oral, 50 mg/kg single dose): 100%
c1cnc2[nH]cc(C3NCCc4sccc43)c2c1 (centres unmarked) — relative fluorescence index (Escherichia coli; efflux pump inhibition; AG100 AcrAB-TolC expressing; 50 µM; baseline: untreated cells): 0.06
NS(=O)(=O)c1nnc(NC(=O)C2CCCCC2)s1 — MIC (Enterococcus faecium; HM-965): 0.861 µM (≈ 0.25 µg/mL)
COCC(=O)Nc1c(C(=O)OC)n(CCC(C)C)c2ncc(NC(C)CCC=C(C)C)cc12 (centres unmarked) — IC50 (Plasmodium; parasite growth): 3.11 µM
COc1ccc(C(=O)C=C(O)C(F)(F)C(F)(F)F)c(O)c1 — EC50 (Plasmodium falciparum; parasite growth; 3D7): 0.14 ± 0.01 µM
CN1CCN(Cc2cccc(CC(O)Cn3c4ccc(Cl)cc4c4cc(Cl)ccc43)c2)CC1 (centres unmarked) — IC50 (Plasmodium; parasite growth): 0.082 µM
c1ccc2c(c1)CCCNC2c1c[nH]c2ncccc12 (centres unmarked) — MIC (Staphylococcus aureus; reference strains): 50 µM (≈ 13.2 µg/mL)
CN1CCN(c2cccc(-c3ccc4ncnc(Nc5ccc(OCc6cccc(F)c6)c(Cl)c5)c4c3)c2)CC1 — EC50 (Trypanosoma brucei; parasite growth): 0.55 µM
c1ccc2c(c1)CCNC2c1c[nH]c2cnccc12 (centres unmarked) — relative fluorescence index (Escherichia coli; efflux pump inhibition; AG100 AcrAB-TolC expressing; 50 µM; baseline: untreated cells): 0.47
O=S(=O)(c1ccc(-c2ccc3ncnc(Nc4ccc(OCc5ccc(C(F)(F)F)c(F)c5)c(Cl)c4)c3c2)cc1)N1CCOCC1 — EC50 (Trypanosoma brucei; parasite growth): 0.54 µM
CC(C)C[C@@H](NC(=O)[C@H](C)NC(=O)CNC(=O)[C@@H](NC=O)C(C)C)C(=O)N[C@@H](C)C(=O)N[C@@H](C(=O)N[C@H](C(=O)N[C@@H](C(=O)N[C@@H](Cc1c[nH]c2ccccc12)C(=O)N[C@H](CC(C)C)C(=O)N[C@@H](Cc1c[nH]c2ccccc12)C(=O)N[C@H](CC(C)C)C(=O)N[C@@H](Cc1c[nH]c2ccccc12)C(=O)N[C@H](CC(C)C)C(=O)N[C@@H](Cc1c[nH]c2ccccc12)C(=O)NCCO)C(C)C)C(C)C)C(C)C — MIC (Streptococcus pyogenes; SSI-9): 0.033 µM (≈ 0.0621 µg/mL)
CCOC(=O)[C@H]1c2c(ccc3ccccc23)O[C@@H]2c3[nH]c4ccccc4c3CCN21 — relative fluorescence index (Staphylococcus aureus; efflux pump inhibition; ATCC 25923; 100 µM; baseline: untreated cells): 0.05
CNC(C)(C)C(O)CC(O)Cn1c2ccccc2c2ccccc21 (centres unmarked) — IC50 (Plasmodium; parasite growth): 10.1 µM
Clc1cc(Nc2ncnc3ccc(-c4cccc(N5CCOCC5)c4)cc23)ccc1OCc1ccccc1 — EC50 (Trypanosoma brucei; parasite growth): 0.23 µM
NS(=O)(=O)c1nnc(NC(=O)CCc2ccccc2)s1 — MIC (Enterococcus faecalis; NR-31972): 0.384 µM (≈ 0.12 µg/mL)
c1ccc2c3c([nH]c2c1)C(c1c[nH]c2ncccc12)NCC3 (centres unmarked) — relative fluorescence index (Staphylococcus aureus; efflux pump inhibition; ATCC 25923; 50 µM; baseline: untreated cells): -0.25
O=C(CCCCCCCCCN=C=S)CC(=O)N[C@H]1CCOC1=O — pyocyanin inhibition (Pseudomonas aeruginosa; PAO1; 50 µM): 40%
CC(C)C[C@@H](NC(=O)[C@H](C)NC(=O)CNC(=O)[C@@H](NC=O)C(C)C)C(=O)N[C@@H](C)C(=O)N[C@@H](C(=O)N[C@H](C(=O)N[C@@H](C(=O)N[C@@H](Cc1c[nH]c2ccccc12)C(=O)N[C@H](CC(C)C)C(=O)N[C@@H](Cc1c[nH]c2ccccc12)C(=O)N[C@H](CC(C)C)C(=O)N[C@@H](Cc1c[nH]c2ccccc12)C(=O)N[C@@H](C(=O)N[C@@H](Cc1c[nH]c2ccccc12)C(=O)NCCO)C(C)C)[C@H](C)O)C(C)C)C(C)C — MIC (Streptococcus pneumoniae; NBRC 102642): 0.0083 µM (≈ 0.0155 µg/mL)
O=S(=O)(c1cccc(-c2ccc3ncnc(Nc4ccc(OCc5cccc(F)c5)c(Cl)c4)c3c2)c1)N1CCCCC1 — EC50 (Trypanosoma brucei; parasite growth): 0.46 µM
NS(=O)(=O)c1nnc(NC(=O)CCC2CCCCC2)s1 — MIC (Enterococcus faecium; HM-965): 0.022 µM (≈ 0.00701 µg/mL)

Some of these lines once more:
O=C(CCCOc1cccc(Br)c1)N[C@H]1CCSC1=O — reduction (Pseudomonas aeruginosa; biofilm flow-chamber clogging time; PA14; concentration not given): 60%
COc1ccc(Nc2nc(Nc3ccc(OCC[18F])cc3)ncc2Br)cc1 — tissue uptake (S180 tumour-bearing mice, muscle; intravenous, 30 min): 1.73 ± 0.2 %ID/g
c1ccc2c3c([nH]c2c1)C(c1c[nH]c2ncccc12)NCC3 (centres unmarked) — relative fluorescence index (Staphylococcus aureus; efflux pump inhibition; ATCC 25923; 50 µM; baseline: untreated cells): -0.25
